Measurements collected from several papers.
Each numbered part is a random draw from the data of one study; scales do not carry over between parts.

Sample 1 — method: RNA Bind-n-Seq; molecule type: RNA; medium: in vitro; concentration: 365 nM; baseline: no-protein control; reading: higher = stronger binding
Target: RNA binding protein fox-1 homolog 2, RRM domain, GST-SBP tag (RBFOX2, Homo sapiens, UniProt O43251-10, residues 100-194)
Notes: natural RNA segment, single round, ends assumed
Shared flanks, not repeated: GGGAGUUCUACAGUCCGACGAUC … UGGAAUUCUCGGGUGCCAA
Residues (chain): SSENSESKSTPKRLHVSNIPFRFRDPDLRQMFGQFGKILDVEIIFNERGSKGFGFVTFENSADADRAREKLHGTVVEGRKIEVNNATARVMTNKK
| Strand | RBNS enrichment (R) |
| --- | --- |
| GCAGGGAGCCGGCUGUGCCCAGUAUGCCUCCUGGACCCUCCAGUUCUGCCACAGGUCUGCCGAUGCCCUGUCCACUGCCUACACAUGACAGACAAGUAACCCCCUCAUGG | 0.75 |
| GCCUUCAAAGAACGAUGAACUUAACCCCAGCUCCUGCCUUCCGACUUGGCUCCAGCCCCUUCUCCUACCACCUCUAUUUAUUAUACAUCAGGGUUGGAGUGGGGGUUGGU | 0.46 |
| GACAUGAGAUGUAUUUAAGGAAAGUAGUCACUAUUCAAAGAACAAAUUAAAGUGUUUAUAACAAACUUGAACCCUUACUGUGUUGUGCUCUGUAAACACCCGGUGGCUAC | 0.348 |
| UCUUGCCCUGUCUCUGAACCUUCAGAACAUUGAUCCUUGCCGCAGCCCCACUAGCCAAGAGAAACAGAGAAAGACCAUUCCCCCUGCCUGUCCUUGCGGCCCUGUCUUCU | 2.23 |
| UAGGUCCAGCCUGUGUAUGUUCUUUUGUUGGUUUGGAUUCUGAGAGUCCCAAGAGUCCAGGUUAGUUGACUCUGUUGGUCUUCCUGUGGAGUUCCUAUCCCCUUUGAGGC | 0.698 |
| UAUAUAUAUAUAUAUAUAUAUAUACCUUAACUUCACUUCAAUGUAAAUAAACUUCUGCUGUUAGGGAUUCCAGUGUCUGUGUUUCUUUUUCUUGUAUCCUGAGCUUUUCA | 0.62 |
| UUUAUCACAUUUUAAUACCACAGCACUUAUAAUGAUGUCACUACAUAUAGAAGCUCAAAGUUAAGGGAUUUGCUGAAGACUGUAAAGUUAAUGGAAGAAUUGAGACAAAA | 0.376 |
| UGCUCCUGCCAGCAACCCACCACCACCGGCUCUCAUGUCUACAACUCAGAGCCGCCCACCCUGGAUGAAUUCUGGUCCUUCAGAGAAUCGGCCCUACCAUGGCAUGCAUG | 6.17 |
| GGAAAGAAAAAGAAAAAGCUGUACUUGGGAGGGGGAAGCUUCAUAUUUAUUUGGUUAUUCAAAAUACAUAUCAGAGUUUGGGUUUCCAGUCUUAGUUGCAUUUGUUGUUU | 1.61 |
| UCAGGUUGGGCGGGGCCGGUUCUAAACGCUCCAAGGGUCAACUCUGUUUCUUGCCUAGCAAACGAAGCUUUGCCCGCACAGCCUUGACUCGCGGCCCCAGGGCGGAGCCC | 0.249 |
| AAGUUUUAGGGUCUGGGCUGAGUCAAGGUGAGUUCCUCUGCCAGGAAGCCCUUUCUAGGAGGUUGUGUCGGCCCCAGCAGGGGCUCUCAGCUUCUCCCCAUCCAGAAACC | 0.338 |
| UUUUUCAUUUUAAUCUUUUUUGACUUUUUUUUAGUUAACCAUUUUUUAUGCAUAAGUGCUCAAAUGCAUUUCUCUUUCUUUCGAAACUAGUUAAUCGUUAAGUUGACAAU | 0.959 |

Sample 2 — method: EMSA with sequencing; molecule type: double-stranded DNA, one strand shown; medium: in vitro; concentration: 10 and 20 nM; baseline: negative control set to 0; reading: higher = stronger binding
Target: Hepatocyte nuclear factor 3-alpha (Foxa1, Mus musculus, UniProt P35582, residues 1-468, full length assumed)
Notes: whole designed probe, mean of two concentrations, ends assumed
Shared flanks, not repeated: GTGAGCGGTGCCCATTGATGGGGAAC … TTTCACTGGGATCGTGGGGAC
Construct (chain): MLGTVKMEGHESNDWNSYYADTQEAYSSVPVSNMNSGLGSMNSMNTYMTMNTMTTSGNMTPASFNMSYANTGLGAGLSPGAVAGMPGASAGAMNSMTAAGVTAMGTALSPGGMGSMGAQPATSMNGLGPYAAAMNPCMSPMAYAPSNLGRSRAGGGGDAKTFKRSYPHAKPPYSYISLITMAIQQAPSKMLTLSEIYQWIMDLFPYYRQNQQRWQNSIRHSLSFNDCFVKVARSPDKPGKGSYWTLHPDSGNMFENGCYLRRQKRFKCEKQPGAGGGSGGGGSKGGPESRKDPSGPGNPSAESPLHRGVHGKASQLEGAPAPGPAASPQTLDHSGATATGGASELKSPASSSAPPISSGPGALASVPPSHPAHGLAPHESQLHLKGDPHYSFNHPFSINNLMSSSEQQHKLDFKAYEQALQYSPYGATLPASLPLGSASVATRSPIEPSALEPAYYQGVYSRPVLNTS
| Strand | normalised bound fraction |
| --- | --- |
| ATCCAGAGGTTGGGCTTGGCATCCAGTTTCTTGCATGTAGAGGAACAAAGAAAGGAAGAGCTCATGCCCACTCTGTAATTATTCAAAATTTATGTTTACTTAGAATTTATCATGCTGCTTAAAATGATCAGAAAAGATTCTCTTTAAAAACTGCTCTGGCTCTAGTCTAAATTACCAAGATATCAAATCACGA | 0.364 ratio |
| TTCCACTTCCGGTCCGACTTCTAGCACCTCCCCTTATGGACTGTTGATATTGCGCATGCTCTAAATTAACTTGGAAGCCAATTTCAGCCCACAGTCATCTGGGAGCACACACATATTTAGAGACATCGTGCAGTTTCCGTAATCGGCGCTCACGGGCAGAGAATATAACCGCGCCCTTATGGTGTTTATTTGT | 0.202 ratio |
| TAACACACTAGGGTATTATTTGTTCTGTCCAATGCATCTTGGATATTCTTCCTCTAAAGACAAGAACTATCTTTTGGTTCCATCTTTGGGTCTTTGTTTACTTTGTGTCACTGGTGAGTATTTGCAGCTCTTTGGGAAAAACTCTTTTCTTAACCATAATGAATTGCTTTATAATTTGCATAGCTTTGCAAAG | 0.549 ratio |
| TTCTTCACTCTTCTCAGGCTGCTGTAAAACAGAATTGATAAAACCACATGTTTCAACTATTATTACAGTTTACATTGTAAGGAAATTTGCCTATGTAAACAAAAAAATGGAGAAAAAAGAGACTCATGTAACTTCTTTTGTAAATAGATGTATTGGGTTAGTAGCAGAACAACTGGGATTGTGAAAACAAAAA | 0.502 ratio |
| ATCTTCCCCCTCTTCCTTGCCCCACCAGCTCACCTTCCCGGGTCAAAGTAAACAAGTGTTTACTTTGAAGCCGGCATTCGTTAACCCTCTTCTGGCGCAAACTGCACATTGGTCTGGATGAATCATGGTCCTTTGGCGACGCCAGGCTCCGGGAGAGCAAAGCACCGTGTCAGGGCCATGATCCGGGGTGGCC | 0.424 ratio |

Sample 3 — method: aptamer microarray, sandwich; molecule type: DNA with 2'F-ANA; medium: in vitro; concentration: 200 nM; with: Cy3 exosite-II aptamer, 400 nM; reading: higher = stronger binding; strand: GGTTGGTGTGGTTGG
Target: Prothrombin, mature alpha-thrombin (F2, Homo sapiens, UniProt P00734)
Notes: whole 15-mer aptamer, many near background
| Modification | mean fluorescence intensity |
| --- | --- |
| 2'F-ANA at 4 5 7 10 11 13 | 49.2 a.u. |
| 2'F-ANA at 5 6 10 11 13 | 46.6 a.u. |
| 2'F-ANA at 1 2 3 4 5 6 8 9 10 12 13 14 15 | 49 a.u. |
| 2'F-ANA at 1 2 3 4 5 7 8 10 11 15 | 259 a.u. |
| 2'F-ANA at 1 6 8 10 12 14 | 44.8 a.u. |
| 2'F-ANA at 4 5 7 8 10 11 15 | 64.7 a.u. |
| 2'F-ANA at 1 6 8 11 15 | 193 a.u. |
| 2'F-ANA at 1 4 6 9 11 12 15 | 174 a.u. |
| 2'F-ANA at 4 5 8 12 14 | 45.4 a.u. |
| 2'F-ANA at 1 2 3 4 5 6 9 10 11 13 14 15 | 52.8 a.u. |
| 2'F-ANA at 1 2 3 4 11 12 14 15 | 105 a.u. |
| 2'F-ANA at 1 2 12 13 14 | 66 a.u. |
| 2'F-ANA at 2 4 5 10 14 15 | 53.2 a.u. |
| 2'F-ANA at 2 5 10 15 | 66.6 a.u. |
| 2'F-ANA at 1 2 3 5 8 11 13 14 | 45.3 a.u. |
| 2'F-ANA at 1 3 5 6 7 9 10 11 15 | 94.2 a.u. |
| 2'F-ANA at 1 4 6 7 8 13 14 | 52.2 a.u. |
| 2'F-ANA at 1 5 8 9 12 13 15 | 82 a.u. |
| 2'F-ANA at 2 4 5 7 8 9 10 11 12 13 | 49.2 a.u. |
| 2'F-ANA at 3 4 5 11 15 | 79 a.u. |

Sample 4 — method: protein binding microarray; molecule type: double-stranded DNA, one strand shown; medium: in vitro; concentration: not given; baseline: not given; reading: higher = stronger binding
Target: Histone acetyltransferase KAT6A, winged helix 2, GST fusion (KAT6A, Homo sapiens, UniProt Q92794, residues 85-181)
Notes: 8-mer, flanks averaged, mean of 2 arrays, mostly near background
Residues (chain): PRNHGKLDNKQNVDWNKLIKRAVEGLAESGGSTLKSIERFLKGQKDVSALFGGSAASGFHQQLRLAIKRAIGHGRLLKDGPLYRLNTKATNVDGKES
| Strand | E-score |
| --- | --- |
| CCACGGGC | 0.11 |
| AAAAACTA | 0.0524 |
| CTGCATCA | 0.101 |
| CACCGTCC | 0.0601 |
| ACATTGAA | 0.0073 |
| GTGAATAA | -0.0491 |
| CATCGCCA | 0.00439 |
| AAGGCAAG | -0.0833 |
| TAAATTGA | 0.112 |
| CTGGATTC | 0.0463 |
| CCTCGCTA | -0.154 |
| CCAAACAC | 0.017 |
| ACTTTCCC | -0.0695 |
| CTAGGACA | 0.0134 |
| ACAGCCGT | 0.0315 |
| GACTTTCA | -0.183 |
| CTACGCTA | -0.0928 |
| AGGGTAAC | -0.164 |
| AGGAATCG | -0.0159 |
| CATTTAAC | 0.022 |
| GATATTGC | -0.0795 |

Sample 5 — method: RNA Bind-n-Seq; molecule type: RNA; medium: in vitro; concentration: 200 nM; notes: whole 134-nt RNA, ends assumed; with: 150 mM LiCl; baseline: input library; reading: higher = stronger binding; library: 7-deaza-guanosine replaces G
Target: Ras GTPase-activating protein-binding protein 1, full length (G3BP1, Homo sapiens, UniProt Q13283)
Sequence of UniProt Q13283 (whole entry, looked up): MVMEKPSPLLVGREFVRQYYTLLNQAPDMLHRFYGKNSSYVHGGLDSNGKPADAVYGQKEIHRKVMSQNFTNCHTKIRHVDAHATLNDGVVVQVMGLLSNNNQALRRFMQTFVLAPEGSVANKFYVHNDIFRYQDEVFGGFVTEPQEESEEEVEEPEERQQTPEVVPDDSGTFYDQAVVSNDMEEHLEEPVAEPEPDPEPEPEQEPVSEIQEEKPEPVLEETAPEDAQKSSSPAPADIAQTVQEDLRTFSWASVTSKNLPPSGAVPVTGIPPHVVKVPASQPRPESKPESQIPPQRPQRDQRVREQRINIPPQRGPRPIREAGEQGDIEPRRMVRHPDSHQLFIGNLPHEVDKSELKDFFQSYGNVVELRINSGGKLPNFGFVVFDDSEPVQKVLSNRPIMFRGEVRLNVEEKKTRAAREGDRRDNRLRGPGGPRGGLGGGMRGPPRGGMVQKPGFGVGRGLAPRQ
Shared flanks, not repeated: GGGAGUUCUACAGUCCGACGAUC … UGGAAUUCUCGGGUGUCAAGG
| Strand | log2 enrichment |
| --- | --- |
| AAGUCCUGUGCUACACAUCGUAUGUACCGAAUCGGUUUUUGGGUUUUUGGUUUUUGGAAAGUAUUAUGUUACGCCGUUCGGAUCUGCACU | -0.46 |
| UGGGAGGUGGAUUUUGUUUAUUUUUUUAGCUCAUUUCCAGGGGUGGGAAUUUUUUCUUAAUAUGUGUCAUGAAUAAAGUUGUUUUUGAAA | -0.731 |
| CUGUGCUACACAUCGUAUGUACCGAAUCGGGAAAAAAAGGGAAAAAAAGGGAAAAAAAGGGAAAGUAUUAUGUUACGCCGUUCGGAUCUG | 0.102 |
| ACCAUGCAGGUGGGCAUCUUUGGGAAGUGGGACAAGGGGGGGAUAGGGAGGGGGGUAACACUUUGGGAACAGGUGGUCCCAGGUCGUUUC | 0.562 |
| UCCUGUGCUACACAUCGUAUGUACCGAAUCGGGGUUUUUGGGGUUUUUGGGGUUUUUGGAAAGUAUUAUGUUACGCCGUUCGGAUCUGCA | 1.08 |
| CCUGUGCUACACAUCGUAUGUACCGAAUCGGGUUUUUUGGGGUUUUUUGGGUUUUUUGGGAAAGUAUUAUGUUACGCCGUUCGGAUCUGC | 0.396 |
| UCCUGUGCUACACAUCGUAUGUACCGAAUCGGGGUUUUUUGGUUUUUUGGGGUUUUUUGGAAAGUAUUAUGUUACGCCGUUCGGAUCUGC | 0.571 |
| GCAGGAAGAAAAAACAAAUGGAAAUGCUUCGGAUAGUGGCAGGGGUGGGGGUUGCUAAGGAAAGGGUGGGAUGGGAGUGGGUAAAGAGUU | -0.031 |

For quick reference, copied from above (sample 3):
| Modification | mean fluorescence intensity |
| --- | --- |
| 2'F-ANA at 1 2 3 4 5 6 9 10 11 13 14 15 | 52.8 a.u. |
| 2'F-ANA at 1 2 3 4 11 12 14 15 | 105 a.u. |
| 2'F-ANA at 1 2 12 13 14 | 66 a.u. |
| 2'F-ANA at 2 4 5 10 14 15 | 53.2 a.u. |
